Experimental data of several laboratories.
Compare with care: the assays were run in different laboratories. ± gives the spread as reported.

`CCCC[C@H](NC(=O)CNC(=O)CNC(=O)CN1CCN(CC(=O)O)CCN(CC(=O)O)CC1)C(=O)N[C@H]1CC(=O)NCCCC[C@@H](C(N)=O)NC(=O)[C@H](Cc2c[nH]c3ccccc23)NC(=O)[C@H](CCCNC(=N)N)NC(=O)[C@@H](Cc2ccccc2)NC(=O)[C@H](Cc2c[nH]cn2)NC1=O` [gallium-67 labelled] gave a urinary excretion of 54.2 ± 13.1% (C57 mice, female, B16/F1 melanoma, urine; intravenous, 0.037 MBq, 0.5 h).
With `CC[C@H](C)[C@H](NC(=O)[C@H](N)Cc1ccc(O)cc1)C(=O)N[C@H]1CSSC[C@@H](C(=O)N(C)[C@H](C(N)=O)[C@@H](C)CC)NC(=O)[C@H](CCCNC(=N)N)NC(=O)[C@H](Cc2c[nH]cn2)NC(=O)[C@H](C)NC(=O)CN(C)C(=O)[C@H](Cc2c[nH]c3ccccc23)NC(=O)[C@H](CC(=O)O)NC(=O)[C@H](CCC(N)=O)NC(=O)[C@H](Cc2cn(C)c3ccccc23)NC(=O)[C@H](C(C)C)NC1=O` the recovery was 99.3 ± 2.3% (UPLC-ESI-MS; human plasma; 0.18 µg/mL, 48 h, 25 °C, bench-top after SPE).
`CC(C)[C@H](NC(=O)CNC(=O)[C@H](CCC(N)=O)NC(=O)[C@H](C)N)C(=O)O` gave an AUC(0-t) of 2670 ng·h/mL (healthy volunteers, LPS endotoxaemia, plasma; intravenous, 15 mg/kg/h, 2 h infusion, geometric mean, together with: LPS 2 ng/kg).
`CC[C@H](C)[C@H](NC(=O)[C@H](CCC(=O)O)NC(=O)[C@H](CC(C)C)NC(=O)[C@H](CC(=O)O)NC(=O)[C@H](CC(=O)O)NC(=O)[C@@H]1CCCN1C(=O)[C@H](CCCNC(=N)N)NC(=O)[C@@H]1CCCN1C(=O)[C@@H](N)CCCNC(=N)N)C(=O)O`: “backbone amide stability” “stable” (carbonate buffer; 5 d, pH 10, 37 °C).
With `Oc1c(Br)cc(Br)c2nc3c(C(F)(F)F)cc(C(F)(F)F)cc3nc12` the hemolysis was 7.8% (human red blood cells; 200 µM, 1 h, pH 7.2, 37 °C).
With `O=C(O)[C@@H]1C[C@@H](O)CN1C(=O)[C@@H]1CCCN1` the log beta was 7.79 (potentiometric titration; 37 °C, together with: Fe(III)).
For `CCCC[C@@H]1NC(=O)[C@@H](NC(=O)[C@H](CCC(=O)O)NC(=O)CNC(=O)CN2CCN(CC(=O)O)CCN(CC(=O)O)CCN(CC(=O)O)CC2)CCCCNC(=O)C[C@@H](C(N)=O)NC(=O)[C@H](C(C)C)NC(=O)[C@@H]2CCCN2C(=O)[C@H](CCCNC(=N)N)NC(=O)CNC(=O)[C@H](Cc2c[nH]c3ccccc23)NC(=O)[C@H](CCCNC(=N)N)NC(=O)[C@@H](Cc2ccccc2)NC(=O)[C@H](Cc2c[nH]cn2)NC(=O)[C@H](CCC(=O)O)NC1=O` [gallium-67 labelled], “tumour to muscle ratio” read 323 (C57 mice with B16/F1 melanoma; intravenous, 0.037 MBq/mouse, 2 h; relative to: tumour over muscle).
`C=CC(=O)Nc1cc(Nc2nccc(-c3cn(C)c4ccccc34)n2)c(OC)cc1N(C)CCNC`: “median trough concentration” 18 ng/mL (UHPLC-MS/MS; human, NSCLC patients, finger-prick dried blood spot; oral, 80 mg daily, steady state, at least 14 d treatment).
For `CC1(C)OB(c2ccc(COC(=O)N[c-]3cccc3)cc2)OC1(C)C.[Fe+2].c1cc[cH-]c1`, the E1/2 was -70 mV (cyclic and differential pulse voltammetry; acetonitrile; 23 °C; relative to: ferrocene/ferrocenium).
`CCCCCCCC(=O)OC[C@H](NC(=O)[C@H](CO)NC(=O)CN)C(=O)N[C@@H](Cc1ccccc1)C(=O)N[C@@H](CC(C)C)C(=O)N[C@@H](CO)C(=O)N1CCC[C@H]1C(=O)N[C@@H](CCC(=O)O)C(=O)N[C@@H](Cc1cnc[nH]1)C(=O)N[C@@H](CCC(N)=O)C(=O)N[C@@H](CCCNC(=N)N)C(=O)N[C@H](C(=O)N[C@@H](CCC(N)=O)C(=O)N[C@@H](CCC(N)=O)C(=O)N[C@@H](CCCNC(=N)N)C(=O)N[C@@H](CCCCN)C(=O)N[C@@H](CCC(=O)O)C(=O)N[C@@H](CO)C(=O)N[C@@H](CCCCN)C(=O)N[C@@H](CCCCN)C(=O)N1CCC[C@H]1C(=O)N1CCC[C@H]1C(=O)N[C@@H](C)C(=O)N[C@@H](CCCCN)C(=O)N[C@@H](CC(C)C)C(=O)N[C@@H](CCC(N)=O)C(=O)N1CCC[C@H]1C(=O)N[C@@H](CCCNC(=N)N)C(=O)O)C(C)C` — result for “blood pressure mBP”: 75.5 ± 12 mm Hg (beat-to-beat plethysmography; human chronic HFrEF patients; intravenous infusion, 0.1 µg/kg/min, 30 min after infusion end).
The acne incidence of `Cn1c(=O)oc2ccc(-c3ccc(CC(C#N)NC(=O)C4CNCCCO4)c(F)c3)cc21` (stereo not drawn) is reported as 0% (human; oral, 10 mg once daily, treatment-related AE, multiple ascending dose).
For `O=C(CCCCC[N+]#[C][99Tc-5]([C]#[N+]CCCCCC(=O)N[C@H]1C(O)O[C@H](CO)[C@@H](O)[C@@H]1O)([C]#[N+]CCCCCC(=O)N[C@H]1C(O)O[C@H](CO)[C@@H](O)[C@@H]1O)([C]#[N+]CCCCCC(=O)N[C@H]1C(O)O[C@H](CO)[C@@H](O)[C@@H]1O)([C]#[N+]CCCCCC(=O)N[C@H]1C(O)O[C@H](CO)[C@@H](O)[C@@H]1O)[C]#[N+]CCCCCC(=O)N[C@H]1C(O)O[C@H](CO)[C@@H](O)[C@@H]1O)N[C@H]1C(O)O[C@H](CO)[C@@H](O)[C@@H]1O` (stereo partly drawn), the kidney/tumour ratio was 1.67 (biodistribution; BALB/c nude mouse PANC-1 xenograft; relative to: kidney over tumour).
`Cc1ccc(-c2ccc(-c3cc4sccc4o3)cn2)nc1` has a fluorescence lifetime of 3.71 ns (acetonitrile; zinc(II) complex).
With `CC/C=C\C/C=C\C/C=C\C/C=C\C/C=C\CCCCOC(CC)C(=O)O` (stereo not drawn) the tissue concentration was 9.8 µg equivalents/g tissue (radioactivity, 14C-labelled; Wistar rat, male, kidney cortex; oral, 100 mg/kg, 1 day).
`CC(C)[C@H](NC(=O)CNC(=O)[C@H](CCC(N)=O)NC(=O)[C@H](C)N)C(=O)O` has an AUC(0-last) of 270 ng·h/mL (LC-MS/MS; human, plasma; intravenous, 10 mg/kg three times daily, day 1, first dose, 10 min infusion, geometric mean).
`COc1cc(-c2nc3ccc(C(=O)NCCCN4CCN(c5ccccc5)C(=O)C4)cc3n2C2CCC2)cc(OC)c1OC` has a dynamic solubility of 154 µM.
`NS(=O)(=O)c1ccc(-n2nc(C(F)(F)F)c(O)c2-c2ccc(F)cc2F)cc1`: “metabolite formation rate” 4.3 pmol/min/mg (substrate; male beagle dog liver microsomes; 20 µM, pH 7.4, mean of 0-90 and 0-60 min).
For `Oc1ccc2ccccc2c1/N=N/c1ccccc1`, “elimination rate constant” read 0.00023 s⁻¹ (Sprague-Dawley rats both sexes, whole blood; oral, 50 mg/kg).
For `NS(=O)(=O)c1ccc(N2N=C(C(F)(F)F)CC2c2ccc(F)cc2F)cc1` (stereo not drawn), “elimination rate ratio” read 2.2 fold (male Wistar rat, liver microsomes; 20 µM, pH 7.4; relative to: human over rat).
With `O=C([O-])CN1CCN(CC(=O)[O-])CCN(CC(=O)NCCc2ccc3c(c2)C2C=CCC2C(c2cc4c(cc2Br)OCO4)N3)CCN(CC(=O)[O-])CC1.[111In+3]` (stereo not drawn) the tissue uptake was 1.33 ± 0.08 %ID/g (mouse, Hec50 endometrial tumour, adrenals; 2 h post injection).
With `C#CCOc1ccc(/C=C2\SC(=O)N(CC(=O)NCc3ccccc3)C2=O)cc1` the correlation volume was 5380 cm³/mol (inverse Kirkwood-Buff integrals; binary solvent mixture; concentration not given, 298.15 K, mole fraction x1 0.80).
`CN1CCC[C@]1(C)/C=C/S(=O)(=O)NC(=O)Nc1c2c(cc3c1CCC3)CCC2` has an AUC(0-24) of 182000 ng·h/mL (human, plasma; oral, 100 mg twice daily, day 14, multiple ascending dose).
For `CSCCN(CCSC)CCc1ccccn1`, the logK(H1) was 7.24 (potentiometric or spectrophotometric titration; water, 0.1 M KCl; 25 °C).
`COC(=O)/C=C/C(=O)c1ccc(OC)cc1` gave a recovery of 95 ± 2.82% (LC-MS/MS; rat plasma; 40 ng/mL, time not given, 3 freeze-thaw cycles).
`C[C@H](CN(C)Cc1ccccc1)NC(=O)c1ccc(-c2noc(C(F)(F)[18F])n2)cc1` gave a muscle uptake of 0.6 SUV (dynamic PET/CT; Sprague-Dawley rat, female; intravenous, dose not given, peak and plateau).
Under “characteristic time t*”, `CC(C)CCCC(C)CCCC(C)CCO[C@@H]1O[C@H](CO)[C@@H](O[C@H]2O[C@H](CO)[C@@H](O)[C@H](O)[C@H]2O)[C@H](O)[C@H]1O` (stereo partly drawn) is recorded as 335 s (dynamic surface tension; 0.0036 mmol/L).
`C[C@](C#N)(COc1cc(C#N)ccc1C(F)(F)F)NC(=O)c1ccc(S(=O)(=O)C(F)(F)F)cc1`: “metabolite formation half-life” 9.79 ± 4.06 h (parasitized calves, plasma; oral, 2.5 mg/kg of monepantel).
For `CC[C@H](C)[C@@H]1NC(=O)[C@H]([C@@H](C)O)NC(=O)[C@H](Cc2ccc(O)cc2)NC(=O)[C@H](CCCNC(=N)N)NC(=O)[C@@H]2CCCN2C(=O)[C@H]2CCCN2C(=O)[C@H]([C@@H](C)O)NC(=O)[C@H](C(C)C)NC(=O)[C@H](C(C)C)NC(=O)[C@H](CCCCN)NC(=O)[C@H](CO)NC(=O)[C@@H](CCC(N)=O)NC(=O)[C@H](CO)NC(=O)[C@H](Cc2ccc(O)cc2)NC(=O)[C@H](CO)NC(=O)[C@H](Cc2ccc(O)cc2)NC(=O)[C@@H]2CCCN2C(=O)[C@H](CO)NC(=O)[C@H](CC(C)C)NC(=O)[C@H](CC(C)C)NC(=O)[C@H](C)NC(=O)[C@H](C)NC1=O`, “apparent molecular weight” read no less than 25 kDa (self-assembled oligomers, PICUP cross-linking and SDS-PAGE; PBS; 36 µM, 1 h, 37 °C).
`C[Si]1(C)CNC(=O)c2ccccc21` has an oral bioavailability of 111 ± 25% (Sprague-Dawley rat, male; 5 mg/kg oral, 1 mg/kg intravenous).
`COCCOCCOCCOCCOCCOCCOCCOCCC(=O)NCCCc1cc2cc3nc(cc4[nH]c(cc5nc(c(OC)c1[nH]2)C(=O)C5(C)C)cc4CCc1ccc(C(=O)O)cc1)CC3(C)C` — result for “Qy/B absorption intensity ratio”: 0.4 (DMF; room temperature).

Repeated from above:
`C[C@H](CN(C)Cc1ccccc1)NC(=O)c1ccc(-c2noc(C(F)(F)[18F])n2)cc1` gave a muscle uptake of 0.6 SUV (dynamic PET/CT; Sprague-Dawley rat, female; intravenous, dose not given, peak and plateau).
Under “characteristic time t*”, `CC(C)CCCC(C)CCCC(C)CCO[C@@H]1O[C@H](CO)[C@@H](O[C@H]2O[C@H](CO)[C@@H](O)[C@H](O)[C@H]2O)[C@H](O)[C@H]1O` (stereo partly drawn) is recorded as 335 s (dynamic surface tension; 0.0036 mmol/L).
`C[C@](C#N)(COc1cc(C#N)ccc1C(F)(F)F)NC(=O)c1ccc(S(=O)(=O)C(F)(F)F)cc1`: “metabolite formation half-life” 9.79 ± 4.06 h (parasitized calves, plasma; oral, 2.5 mg/kg of monepantel).
For `CC[C@H](C)[C@@H]1NC(=O)[C@H]([C@@H](C)O)NC(=O)[C@H](Cc2ccc(O)cc2)NC(=O)[C@H](CCCNC(=N)N)NC(=O)[C@@H]2CCCN2C(=O)[C@H]2CCCN2C(=O)[C@H]([C@@H](C)O)NC(=O)[C@H](C(C)C)NC(=O)[C@H](C(C)C)NC(=O)[C@H](CCCCN)NC(=O)[C@H](CO)NC(=O)[C@@H](CCC(N)=O)NC(=O)[C@H](CO)NC(=O)[C@H](Cc2ccc(O)cc2)NC(=O)[C@H](CO)NC(=O)[C@H](Cc2ccc(O)cc2)NC(=O)[C@@H]2CCCN2C(=O)[C@H](CO)NC(=O)[C@H](CC(C)C)NC(=O)[C@H](CC(C)C)NC(=O)[C@H](C)NC(=O)[C@H](C)NC1=O`, “apparent molecular weight” read no less than 25 kDa (self-assembled oligomers, PICUP cross-linking and SDS-PAGE; PBS; 36 µM, 1 h, 37 °C).
